Measured values from different studies.
Each line is one published result; not all experiments were run side by side. “And” joins repeats or separate records; there may be more than shown.
Cell line: EKVX

For O=C(Nc1nnc2[nH]c(=S)[nH]c(-c3ccc(Cl)cc3)c1-2)c1ccccc1, the cell growth was 92.7% (SRB; 10 µM, NCI60 single-dose screen; relative to: untreated).
With CCCN1CCN(c2ccc3[nH]c(-c4ccc5[nH]c(-c6ccc(C(F)(F)F)cc6)nc5c4)nc3c2)CC1 the growth percent was -34.3% (SRB; 10 µM, 48 h).
Cc1cc(=O)[nH]c(=O)n1Cc1cn(-c2cc3ccccc3oc2=O)nn1 has a growth percentage of 98.5% (NCI60 single-dose screen; 10 µM).
CCCCCCCCCCCCCCCCCCOc1ccc(CC(=O)OCC[N+]2(C)CCCC2)cc1 gave a growth inhibition of under 0% (SRB; 10 µM).
For CCOc1ccc(-c2nc3cc(-c4nc5cc(N6CCN(C)CC6)ccc5[nH]4)ccc3[nH]2)cc1OCC, the growth percent was 50.2% (SRB; 10 µM, 48 h).
With S=C([S][Au-][P+](CCCCCC[P+]([Au-][S]C(=S)n1cccn1)(c1ccccc1)c1ccccc1)(c1ccccc1)c1ccccc1)n1cccn1 the log10 TGI was over -4 (cell growth, NCI-60 screen; non-small cell lung cancer).
C#C[C@@]1(O)[C@@H](CO)O[C@@H](n2cc(F)c3c(N)ncnc32)[C@@H]1O gave a TGI of 11.3 µM (SRB; NCI-60 screen).
With CCN(CC)c1ccc(C=NNC(=O)CSc2nc3ccccc3c(=O)n2Cc2ccc(S(N)(=O)=O)cc2)c(O)c1 the TGI was over 100 µM (NCI five-dose screen).
For O=C(Nc1nnc2n3c(nc(-c4ccc(Cl)cc4)c1-2)SCC3=O)c1ccccc1, the cell growth was 89% (SRB; 10 µM, NCI60 single-dose screen; relative to: untreated).
O=c1ccn(Cc2cn(-c3cc4ccccc4oc3=O)nn2)c(=O)[nH]1 has a growth percentage of 102% (NCI60 single-dose screen; 10 µM).
With Cc1cc(-c2ccccc2)n(-c2nc(-c3ccc(Cl)cc3)c3c(NC(=O)c4ccccc4)nnc-3[nH]2)n1 the cell growth was 95.3% (SRB; 10 µM, NCI60 single-dose screen; relative to: untreated).
With CCCCN1CCN(c2ccc3[nH]c(-c4ccc5[nH]c(-c6ccc(C(F)(F)F)cc6)nc5c4)nc3c2)CC1 the growth percent was -72.4% (SRB; 10 µM, 48 h).
The growth inhibition of CCCCCCCCCCCCCCCCCCOc1cccc(CC(=O)OCC[N+]2(C)CCOCC2)c1 is reported as under 0% (SRB; 10 µM).
With CCCCN1CCN(c2ccc3[nH]c(-c4ccc5[nH]c(-c6ccc(OCC)cc6)nc5c4)nc3c2)CC1 the growth percent was 92.9% (SRB; 10 µM, 48 h).
With Cn1cncc1C1=CN(c2ncnc3[nH]cnc23)CCS1 the TGI was 126 µM (lung cancer).
CCOC(=O)CSc1nc(-c2ccc(Cl)cc2)c2c(NC(=O)c3ccccc3)nnc-2[nH]1 has a cell growth of 100% (SRB; 10 µM, NCI60 single-dose screen; relative to: untreated).
The TGI of C#C[C@@]1(O)[C@@H](CO)O[C@@H](n2cc(I)c3c(N)ncnc32)[C@@H]1O is reported as 4.04 µM and 7.14 µM (SRB; NCI-60 screen).
CCCC(CCC)C(=O)OCc1cn(-c2c3ccccc3nc3ccccc23)nn1 has a growth percentage of 101% (NCI60 single-dose screen; 10 µM).
NNc1nc(-c2ccc(Cl)cc2)c2c(NC(=O)c3ccccc3)nnc-2[nH]1 has a cell growth of 104% (SRB; 10 µM, NCI60 single-dose screen; relative to: untreated).
CCCN1CCN(c2ccc3[nH]c(-c4ccc5[nH]c(-c6cc(OC)c(OC)c(OC)c6)nc5c4)nc3c2)CC1 gave a growth percent of 109% (SRB; 10 µM, 48 h).
The cell growth of O=C(Nc1nnc2n3c(Cc4ccccc4)n[nH]c3nc(-c3ccc(Cl)cc3)c1-2)c1ccccc1 is reported as 95% (SRB; 10 µM, NCI60 single-dose screen; relative to: untreated).
CCCCN1CCN(c2ccc3[nH]c(-c4ccc5[nH]c(-c6ccc(OCC)c(OCC)c6)nc5c4)nc3c2)CC1 gave a growth percent of 24.6% (SRB; 10 µM, 48 h).

Excerpt of the above:
For O=C(Nc1nnc2n3c(nc(-c4ccc(Cl)cc4)c1-2)SCC3=O)c1ccccc1, the cell growth was 89% (SRB; 10 µM, NCI60 single-dose screen; relative to: untreated).
With CCCN1CCN(c2ccc3[nH]c(-c4ccc5[nH]c(-c6ccc(C(F)(F)F)cc6)nc5c4)nc3c2)CC1 the growth percent was -34.3% (SRB; 10 µM, 48 h).
With CCCCN1CCN(c2ccc3[nH]c(-c4ccc5[nH]c(-c6ccc(OCC)cc6)nc5c4)nc3c2)CC1 the growth percent was 92.9% (SRB; 10 µM, 48 h).
